Measurements gathered from unrelated publications.
Each line is one published result; not all experiments were run side by side. “And” joins repeats or separate records; there may be more than shown. ± gives the spread as reported.

SMILES	tested on	assay	test system	setting	how to read	measurement	value
COc1ccc(C[C@@H](C)[C@@H](C)Cc2ccc(OC)c(OC)c2)cc1OC			beagle dog female, plasma	oral, 300 mg/kg/day, day 28		AUC(0-t)	18100 ± 7470 ng·h/mL
CC(=O)N[C@@H](CS)C(=O)O			rat, plasma			fraction unbound	2.4%
CO[C@@H]1[C@H](OC(=O)N2CC(CCN3CCOCC3)C2)CC[C@]2(CO2)[C@H]1[C@@]1(C)O[C@@H]1CC=C(C)C			humans	subcutaneous, 0.6 mg twice weekly for 4 weeks, day 28	reference: baseline	heart rate	0.1 ± 5.8 beats/min
Cc1cc(NC2CCN(C(=O)OC3CCN(C(=O)/C=C/CN(C)C)C3)CC2)n2ncc(C(C)C)c2n1 (centres unmarked)		Phase I dose escalation CTCAE v4.0, refers to: decreased appetite	patients with advanced solid tumours	dose not given, Total dosing any grade		patients with adverse event	17%
COc1nnc2ccc(N3CCC(c4ccc(OCCN5CCN(C)C(=O)[C@H]5C)cc4)CC3)nn12			human, plasma	oral, 10 mg once daily, single dose, monotherapy		AUClast	0.309 µM·h
FC(F)(F)c1ccc(CNc2ccc(Cc3c[nH]c4ncc(Cl)cc34)cn2)cn1		refers to: Dysgeusia	patients with advanced solid tumours, all cohorts	oral, 1000 mg/day, any grade		treatment-related adverse events	22%
Cc1c(Cl)c(C)[n+]([O-])c(Cl)c1-c1noc(-c2cc(O)c(O)c([N+](=O)[O-])c2)n1		refers to: Severe severity	healthy Caucasian subjects	oral, 25 mg		adverse event incidence	0%
CNC(=O)c1cccc(-c2ccc3c(N4CCOC[C@@H]4C)nc(N4CCOC[C@@H]4C)nc3n2)c1			patients with advanced solid tumours, plasma	oral, 35 mg, all dose levels, with: navitoclax		Cmin,ss	312 ± 350 ng/mL
COc1ccnc(C(=O)N[C@H]2COC(=O)[C@H](Cc3ccccc3)[C@@H](O)[C@H](C)OC2=O)c1O		aerobic dark soil incubation	clay soil	20 °C, modelling endpoint		DT50	10.7 days
COC(=O)N[C@@H](C)CNc1nccc(-c2cn(C(C)C)nc2-c2cc(Cl)cc(NS(C)(=O)=O)c2F)n1			humans, plasma	oral, day 1, single dose, with: binimetinib		half-life median	193 min
CNCc1ccc(-c2[nH]c3cc(F)cc4c3c2CCNC4=O)cc1			patients	oral, 480 mg twice daily, all grades		any adverse event incidence	88.9%
CCCCC[C@H](O)CC[C@@H]1[C@H]2Cc3cccc(OCC(=O)O)c3C[C@H]2C[C@H]1O		LC-MS/MS	Japanese PAH patients, plasma	inhaled, 54 µg, no background PAH therapy		geometric mean Cmax	0.6 ng/mL
NCCONC(=O)[C@@H]1CC[C@@H]2CN1C(=O)N2OS(=O)(=O)O			human, male, urine	intravenous infusion, 1 g single dose	reference: dose	cumulative urinary excretion (0-24 h)	84.9%
N#Cc1ccc2c(c1)[C@H]1CCCN(C(=O)c3ccc4[nH]cnc4c3)[C@H]1C2			human females	360 mg, day 15		SHBG level	34.7 nmol/L
CCCCN(Cc1c(-c2ccccc2)nc2ccc(C)cn12)c1cccc(C(F)(F)F)c1			peritoneal macrophages, Swiss mice	5 days, 5% fetal calf serum		CC50	7.94 µM
Cc1cn([C@H]2C[C@H](N=[N+]=[N-])[C@@H](CO)O2)c(=O)[nH]c1=O			human, both sexes, PBMCs	oral, 600 mg, single dose		MRT(0-t)	4.94 ± 19.3 h
CCc1cc(C(=O)NC)c2nccc(N3CCc4c(cc(Cn5ccnc5)cc4-c4cn(C)nc4C(F)(F)F)C3=O)c2c1			Sprague Dawley rats	oral, 100 mg/kg once daily, 7 days	reference: vehicle	serum AST change	4.8%
O=c1c2ccccc2oc2ccccc12			tricaprin-tricaprylin mixture	60 °C, tricaprin fraction 0.56		solubility	0.0809 mole fraction
OC[C@H]1[C@@H](c2ccc(C#Cc3ccccc3)cc2)[C@@H]2CN(Cc3cncnc3)CCCCN12	Insulin-degrading enzyme (IDE, Homo sapiens, UniProt P14735)	enzyme activity, inhibitor, fluorogenic kinetic		with: Mca-RPPGFSAFK(Dnp)-OH substrate		EC50	4.3 µM
CN(CCCN1CCN(C(=O)CN2CCN(CC(=O)[O-])CCN(CC(=O)[O-])CCN(CC(=O)[O-])CC2)CC1)c1ccc2nccc(C(=O)NCC(=O)N3CC(F)(F)C[C@H]3C#N)c2c1.[68Ga+3]			mouse, HT-1080.hFAP/HT-1080.wt xenograft, HT-1080.hFAP tumour	iv, 500 pmol, 4 h		tumour uptake	1.3 %IA/g

SMILES	tested on	assay	test system	setting	how to read	measurement	value
CCO[C@H]1CCN(Cc2c(OC)cc(C)c3[nH]ccc23)[C@H](c2ccc(C(=O)O)cc2)C1			human severe hepatic impairment, plasma	oral, 200 mg single dose, median		total half-life	1550 min
Cc1ccc(Sc2ccccc2N2CCNCC2)c(C)c1			elderly women	oral, 10 mg single		any adverse event	25%
C=CC(=O)Nc1cc(Nc2nccc(-c3cn(C)c4ccccc34)n2)c(OC)cc1N(C)CCN(C)C		storage stability	human plasma	72 h, -80 °C, LLOQ level		recovery	95.7%
O=C(Nc1nc2cccc(-c3ccc(CN4CCS(=O)(=O)CC4)cc3)n2n1)C1CC1		refers to: hypotension	human rheumatoid arthritis patients	oral, 75 mg once daily, 4 weeks, regardless of relatedness		treatment-emergent adverse events	0%
Cl.O=C(c1cc(Cc2n[nH]c(=O)c3ccccc23)ccc1F)N1CC(CNC2CC2)C1			athymic nude mouse sample A PDX, tumour	oral, 12.5 mg/kg, 24 h		tumour concentration	> 100 ng/g
Cc1nc(-c2ccc(OCC(C)C)c(C#N)c2)sc1C(=O)O			healthy Chinese subjects	oral, 40 mg single, fed		participants with AEs grade 3 or above	0%
Cc1cccc(CNC(=O)c2cn(CCNC(=O)c3ccccc3Sc3c([N+](=O)[O-])ncn3C)c3cc4c(cc3c2=O)OC(F)(F)O4)n1			Sprague-Dawley rat, male, plasma	intravenous, 5 mg/kg of parent compound		AUC(0-t)	325 ± 8.26 ng·h/mL
Cc1ccc(S(=O)(=NC(=O)C(C)(C)C)c2ccccc2)cc1 (centres unmarked)			human liver microsomes		reference: hepatic blood flow	metabolic stability	61%
CC(C)(C(=O)N1CCOc2c(C#N)cncc2C1)C(F)F			healthy humans, both sexes, plasma	oral, 40 mg single dose, 2-fold dose increase	reference: 40 mg over 20 mg	AUClast dose proportionality ratio	2.16
Cc1cc(Nc2ncc(Cl)c(Nc3ccccc3S(=O)(=O)C(C)C)n2)c(OC(C)C)cc1C1CCNCC1			human, plasma	oral, 450 to 600 mg, cycle 2 day 1		AUC(0-24h) increase	70%
CCCCCN(C)CCC(O)(P(=O)(O)O)P(=O)(O)OP(=O)(O)OC[C@H]1O[C@@H](n2ccc(N)nc2=O)C(F)(F)[C@@H]1O (some centres unmarked)			HEPES buffer	pH 6.2, 37 °C		hydrolysis rate constant	0.109 h⁻¹
CSc1ccccc1C(=O)NCCn1cc(C(=O)NCc2cccc(C)n2)c(=O)c2cc3c(cc21)OC(F)(F)O3			Sprague-Dawley rat, male, whole blood	intramuscular, 10 mg/kg of parent compound		AUC(0-t)	94.9 ± 46.2 ng·h/mL
COc1ccc2c(c1)CN(C(=O)CCN1CCC(Cc3ccccc3)CC1)CC[S@@+]2[O-]		telemetry	conscious male beagle dogs	intravenous, 2 mg/kg, 4 h		systolic blood pressure	137 ± 11 mmHg
C[C@@H]1OC(=O)[C@H](Cc2ccccc2)[C@H]1O			Swiss Lake sand sediment, aerobic dark	20 °C		DT50 whole system	23.1 days
CO[C@H]1C[C@@H]2CC[C@@H](C)[C@@](O)(O2)C(=O)C(=O)N2CCCC[C@H]2C(=O)O[C@H]([C@H](C)C[C@@H]2CC[C@@H](OC(=O)NCCOCCOCCOCCOCCOCCOCCOCCOCCC(=O)N3CCc4cc(Cn5nc(-c6ccc7oc(N)nc7c6)c6c(N)ncnc65)ccc4C3)[C@H](OC)C2)C[C@@H](O)[C@H](C)/C=C(\C)[C@@H](O)[C@@H](OC)C(=O)[C@H](C)C[C@H](C)/C=C/C=C/C=C/1C			human, plasma	intravenous, 12 mg, cycle 1 day 15, arithmetic mean		half-life	330 min
COc1cccc(OC)c1-c1cc(C(=O)NC2(C(=O)O)C3CC4CC(C3)CC2C4)nn1-c1ccc(C(=O)N(C)CCCN(C)CCCN(C)C(=O)CN2CCN(CC(=O)[O-])CCN(CC(=O)[O-])CCN(CC(=O)[O-])CC2)cc1C(C)C.[177Lu+3] (centres unmarked)			mouse, HT-29 xenograft, lung	24 h post injection		tissue uptake	0.23 %ID/g
O=C(O)c1cccc(C(=O)O)c1			betaine/ethylene glycol DES-water	DES mass fraction 0.30		apparent dissolution enthalpy	10.2 kJ/mol
CCN1/C(=C/C(C)=O)Sc2ccc(F)cc21			cynomolgus monkey	oral, 30 mg/kg, 24 h post-dose		mean blood pressure	87 ± 2 mmHg
O=C(O)CCC(=O)O.[2H]C([2H])([2H])Oc1cc(C)c2[nH]ccc2c1CN1CC[C@@H](C2CC2)C[C@H]1c1ccc(C(=O)O)cc1		multiple ascending dose	healthy Chinese subjects	100 mg twice daily		subjects with neutropenia	0%
FC(F)(F)c1ccc(CNc2ccc(Cc3c[nH]c4ncc(Cl)cc34)cn2)cn1		refers to: alanine aminotransferase increased	patients with advanced solid tumours	oral, dose not given, grade 1 and 2, possibly related to drug		adverse event incidence	17%

SMILES	tested on	assay	test system	setting	how to read	measurement	value
COc1ccc([C@@H](O)c2cc(-c3ncnc4cc(N5CCOCC5)ccc34)c(F)cc2Cl)nn1		geometric mean	healthy volunteers, urine	oral, 100 mg, high-fat fed tablet		renal clearance	0.827 mL/min
C=CCN1CC(=O)N2[C@@H](Cc3ccc(O)cc3F)C(=O)N(Cc3cccc(N4CC(N5CCN(CC)CC5)C4)n3)C[C@@H]2N1C(=O)NCc1ccccc1			advanced solid tumour patients	45 mg twice daily, treatment-related, any grade		patients with ALT increased	0%
Cn1cc(-c2cn3nccc3c(-c3cnn([C@]4(CC#N)C[C@@H](C#N)C4)c3)n2)cn1			healthy humans fasted, plasma	10 mg single dose, geometric mean		apparent volume Vz/F	226 L
NC1(C(=O)N[C@@H](CCO)c2ccc(Cl)cc2)CCN(c2nc[nH]c3nccc2-3)CC1			metastatic CRPC patients	400 mg b.i.d., any grade, treatment-related, with: enzalutamide 160 mg daily		incidence of lower abdominal pain	0%
Cc1ccc(-c2cc(C(F)(F)F)nn2-c2ccc(S(N)(=O)=O)cc2)cc1			rat, stomach	concentration not given, 4 h	reference: indomethacin	ulcer number	50%
Cc1ccc([C@@H]2O[C@H](CO)[C@@H](O)[C@H](O)[C@H]2O)cc1Cc1ccc(-c2ccc(F)cc2)s1		refers to: inorganic phosphorus	Japanese type 2 diabetes patients	400 mg, day 3, 24 h urine collection	reference: baseline	urinary phosphate excretion change	202 mg
OC[C@H]1O[C@@H](c2ccc(Cl)c(Cc3ccc(O[C@H]4CCOC4)cc3)c2)[C@H](O)[C@@H](O)[C@@H]1O			Japanese type 1 diabetes patients, blood	25 mg, day 28	reference: baseline	change in LDL/HDL ratio	-0.03
C=CC(=O)N1CCC(c2ccc(C(N)=O)c(-c3ccc(Oc4ccccc4)cc3)n2)CC1			relapsed/refractory mantle cell lymphoma patients	oral, dose not given, part, all doses, CTCAE v4.03		number of treatment-related AEs	39
OC[C@H]1O[C@@H](c2ccc(F)c(Cc3cc4ccccc4s3)c2)[C@H](O)[C@@H](O)[C@@H]1O			Japanese patients, type 1 diabetes	oral, 50 mg/day, onset day 11	reference: patients	hypoglycaemia-related adverse event	4%
O=C(c1cccnc1-c1ccncc1)N1CCC(O)(Cc2ccccc2)CC1			healthy Japanese adults	oral, 100-300 mg twice daily, 21 days		participants with adverse events	83.3%
O=C(Nc1cnccc1Cl)N1CCN(Cc2ccc3c(c2)OC(F)(F)O3)CC1		multiple ascending dose	young men	75 mg, treatment-emergent adverse events		postural dizziness incidence	16.7%
COc1ccc(Cn2ccc3ccc(C(=O)NO)cc32)cc1	HBL-1			0.1 µM, 120 h		viability	120%
O=C1NCCc2nc(OCc3cccc(F)c3)ccc21		refers to: tail pinch	Sprague-Dawley rat male	oral, 100 mg/kg, 0 min	reference: baseline, direction not given	Irwin test score	0
CO[C@H]1CC[C@H](N2C(=O)CNc3ncc(-c4ccc(C(C)(C)O)nc4)nc32)CC1			patients, urine	oral, 30 mg, day -1, geometric mean		renal clearance	0.383 mL/min
CN1C(=O)[C@@H](NC(=O)c2nnc(Cc3ccccc3)[nH]2)COc2cccnc21			human, both sexes			t½	360 to 540 min
CC(C)c1nc(N(C)S(C)(=O)=O)nc(-c2ccc(F)cc2)c1/C=C/[C@@H](O)C[C@@H](O)CC(=O)O		refers to: gastrointestinal disorders	healthy men	oral, dose not given, 8 days, treatment-emergent, crossover trial		subjects with adverse event	0%
CCO[C@H]1CCN(Cc2c(OC)cc(C)c3[nH]ccc23)[C@H](c2ccc(C(=O)O)cc2)C1			PNH patients, active haemolysis	oral, 50 mg, treatment		incidence alkaline phosphatase increase	16.7%
CCOC(=O)NCCCC(=O)NCCc1ccccc1	HBL-1			0.5 µM, 120 h		viability	130%
COc1ccc(CNc2nc(-c3ccc(C(=O)O)cc3)nc3c2c2ccccc2n3C)cc1Cl			NSG mice	dose not given, day 7 of treatment		body weight	22.8 g and 22.3 g and 23.9 g and 21.5 g

Excerpt of the above:
SMILES	tested on	assay	test system	setting	how to read	measurement	value
OC[C@H]1O[C@@H](c2ccc(F)c(Cc3cc4ccccc4s3)c2)[C@H](O)[C@@H](O)[C@@H]1O			Japanese patients, type 1 diabetes	oral, 50 mg/day, onset day 11	reference: patients	hypoglycaemia-related adverse event	4%
CO[C@H]1CC[C@H](N2C(=O)CNc3ncc(-c4ccc(C(C)(C)O)nc4)nc32)CC1			patients, urine	oral, 30 mg, day -1, geometric mean		renal clearance	0.383 mL/min
Cc1nc(-c2ccc(OCC(C)C)c(C#N)c2)sc1C(=O)O			healthy Chinese subjects	oral, 40 mg single, fed		participants with AEs grade 3 or above	0%
Cc1cc(Nc2ncc(Cl)c(Nc3ccccc3S(=O)(=O)C(C)C)n2)c(OC(C)C)cc1C1CCNCC1			human, plasma	oral, 450 to 600 mg, cycle 2 day 1		AUC(0-24h) increase	70%
